Experimental data pooled from the literature.
Parts stem from different laboratories: compare values within a part only. Positions count from the first letter of the parent shown.

Study 1 — method: RNA Bind-n-Seq; form: RNA; matrix: in vitro; concentration: 1 µM; notes: whole 134-nt RNA, ends assumed; added: 150 mM KCl; relative to: input library; direction: higher = stronger binding
Target: Ras GTPase-activating protein-binding protein 1, C-terminal RGG region (G3BP1, Homo sapiens, UniProt Q13283)
Sequence of UniProt Q13283 (whole entry, looked up): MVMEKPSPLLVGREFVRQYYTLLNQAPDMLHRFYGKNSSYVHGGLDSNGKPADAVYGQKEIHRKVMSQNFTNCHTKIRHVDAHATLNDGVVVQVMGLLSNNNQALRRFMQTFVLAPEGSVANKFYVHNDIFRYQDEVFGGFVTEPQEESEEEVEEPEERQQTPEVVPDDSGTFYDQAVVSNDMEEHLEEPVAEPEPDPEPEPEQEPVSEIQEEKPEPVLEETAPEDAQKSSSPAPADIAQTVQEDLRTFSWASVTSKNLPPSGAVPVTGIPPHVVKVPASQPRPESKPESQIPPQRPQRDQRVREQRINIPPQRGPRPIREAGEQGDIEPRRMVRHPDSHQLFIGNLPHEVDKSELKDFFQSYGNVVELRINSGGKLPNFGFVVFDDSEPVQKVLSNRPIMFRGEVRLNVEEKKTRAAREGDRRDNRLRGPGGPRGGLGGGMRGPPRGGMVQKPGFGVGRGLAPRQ
Constant ends, left off below: GGGAGUUCUACAGUCCGACGAUC … UGGAAUUCUCGGGUGUCAAGG
Sequence	log2 enrichment
AAGUCCUGUGCUACACAUCGUAUGUACCGAAUCGGGAAAAAGGGAGGGUUUUUGGGAAAGUAUUAUGUUACGCCGUUCGGAUCUGCACUU	1.45
CCUGUGCUACACAUCGUAUGUACCGAAUCGGGGAAAAAAGGGGAAAAAAGGGGAAAAAAGGAAAGUAUUAUGUUACGCCGUUCGGAUCUG	-1.6
UGGCCCUGGUGGCAUGCGGGGAGGAAGAGGUGGCCUCAUGGAUCGUGGUGGUCCCGGUCGAAUGUUCAGAGGUGGCCGUGGUGGAGACAG	1.59
UCCUGUGCUACACAUCGUAUGUACCGAAUCGGGGUUUUUGGGGUUUGGGGAAAAAGGGGAAAGUAUUAUGUUACGCCGUUCGGAUCUGCA	2.13
CAAGUCCUGUGCUACACAUCGUAUGUACCGAAUCGGGCCCGGGCCCGGGGCCCGGAAAGUAUUAUGUUACGCCGUUCGGAUCUGCACUUC	-1.86
UCCUGUGCUACACAUCGUAUGUACCGAAUCGGGGAAAAAAGGGAAAAAAGGAAAAAAGGAAAGUAUUAUGUUACGCCGUUCGGAUCUGCA	-1.15
UCAAGUCCUGUGCUACACAUCGUAUGUACCGAAUCGGGUGGGUUUUUGGGUGGGAAAGUAUUAUGUUACGCCGUUCGGAUCUGCACUUCC	0.952
CCUCAAGUCCUGUGCUACACAUCGUAUGUACCGAAUCGGUGGUGGGGUGGGGAAAGUAUUAUGUUACGCCGUUCGGAUCUGCACUUCCAG	-0.186
UCCUGUGCUACACAUCGUAUGUACCGAAUCAAACCCCCCCAAACCCCCAAAUUUUUAAAAAAGUAUUAUGUUACGCCGUUCGGAUCUGCA	-0.475
GCAGGAAGUAAAAACAAAUGGAAAUGCUUCGAAUAGUGGCAGGGGUGGGGGUUGCUAAGGAAAGGGUGGGAUGGGAGUGGGUAAAGAGUU	1.96
GCAGGAAGUACAAACAAAUGGAAAUGCUUCGGAUAGUGGCAGGGGUGGGGGUUGCUAAGGAAAGGGUGGGAUGGGAGUGGGUAAAGAGUU	1.43
UGCGAGGUGGAUUUUGUUUAUUUUUUUAGCUCAUUUCCAGGGGUGGGAAUUUUUUUUUAAUAUGUGUCAUGAAUAAAGUUGUUUUUGAAA	2.29
GCAGGACGUAAAAACAAAUGGAAAUGCUUCGGAUAGUGGCAGGGGUGGGGGUUGCUAAGGAAAGGGUGGGAUGGGAGUGGGUAAAGAGUU	1.28
UAACUUUAGAGGAGGAUCUGAUGGAUAUGGCAGUGGACGUGGAUUUGGGGAUGGCUAUAAUGGGUAUGGAGGAGAACCUGGAGGUGGCAA	-1.02

Study 2 — method: RNA Bind-n-Seq; form: RNA; matrix: in vitro; concentration: 365 nM; relative to: no-protein control; direction: higher = stronger binding
Target: RNA binding protein fox-1 homolog 2, RRM domain, GST-SBP tag (RBFOX2, Homo sapiens, UniProt O43251-10, residues 100-194)
Notes: natural RNA segment, single round, ends assumed
Constant ends, left off below: GGGAGUUCUACAGUCCGACGAUC … UGGAAUUCUCGGGUGCCAA
Residues (chain): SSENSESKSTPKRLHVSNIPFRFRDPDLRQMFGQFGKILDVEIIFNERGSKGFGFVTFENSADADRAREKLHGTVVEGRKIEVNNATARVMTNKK
Sequence	RBNS enrichment (R)
GGUUGUUUUUACAAAUCUCUCUCAGAUAUAUUAUUUUCAUGACAAAAAUGAAGGAGCUUUGUAAAUUUUUUAAAAAUUAUGAAUCGUAUCAAGUAGUUGUUUACAUUUGA	1.45
GGGAAAGACUGGCCCCCAUGAUUCAAUUACCUCCCCUUGGGUCUCUCCCACAACACGUGGGAAUUCUGGUAGAUACAAUUUCAAGUUGAGAUUUGGGUGGGGACAUAGCC	0.688
CUCUGAUAGGAUCGUGUCCUUCAGUCAAGAGCUCAUGUGAACUCCAGACUUUAUAUUACAUCUCUGAAGUUCUUGAUGUGGGGAAGAUUGACUUUUAUUCCAUUUUUAUA	0.518
UGCGGAGAGAGUGGGAGUGCUCAGGGAAAGAAGGUGAUUUGUAUUUGUCUCCCCGCUGAAAAGAACAGGAUUCAAGUCCAGAGUUUUCAUCUUCAGCCUGUGAUCUGUCC	0.397
AUGGACAGACAGAUCCCUGAUGUCUGUCACUAUAGACACACGUGUUGUACAUGUGGCCCUUAACACUUGACACUCUUAACACUACUCAUGGGGCUGGGUAGAGGGAGGCU	0.626
CCUGGCUUCCUACUUGGGUAUAGCAUGUCCAAACUGGGCUCUGAACACUACAGCCUGCCUUGGAGCUGGCCUAUCUCUGGGGGUGUUAGAGAGUUUGUGGGGAUCUCUUC	4.45
CACUUAACUAUACGUACUUUAUCUCUGGUAACACUAGAAUGCUGUGGUCUUGAGGGAAUGUUAGCAAGGAACACAUAGAAGAUUUGGUGUUUCAUAAGCCUGUCUAGGUG	6.2
CCAGCAUGGAUGGUGGAACCACAGUACCUCUUACACUCCCUGUGGCUCCAACUUCAGGAAAUAAAUUUCCCAUUGCGAGGGACCCAGCUCUGUUUCUGCUGCUUCCAUCA	0.909
CCUCAUAACUCUACCACCAUUAUAAUGGAUCUAUAUAAAAUUGCUUAAUAUCAGUAGCCUAAAUUUAGGAGCACUAUAGUUUUAAAAAUACUUAAUUGGCUACUUUAUUU	1.05
CUUUUCUUGUUGAACUUCUUGGAAAAGCCACCAAUUCUAGAUCUUGAUUUGAAUUAAUACACACAAUAUCUGAGACACUUACACUUUUCAAAAGAUUUGUGUAUGCAUUG	0.496
GAUGAUAAUGAGGUACUGAACCACGAUGGCUGUUGAGGAAUUGGUCCUAAAAGGACAGAUCACUUCAGAAGAGUGAAUAACUGAUUUGCACAGCUGAAUCAGGAGACACA	0.303
CAGACCGGCUGACCACUCCUUUUGGAGACGGCAGGAGGCCUGAGCGAUCCGUACUCAGAACGUCCAGGAGAGACGCAUGGCCCGAAGUCAAAGUGCUGGAAUUUUCCAAA	3.03

Study 3 — method: protein binding microarray; form: double-stranded DNA, one strand shown; matrix: in vitro; concentration: not given; relative to: not given; direction: higher = stronger binding
Target: Histone acetyltransferase KAT6A, winged helix 2, GST fusion (KAT6A, Homo sapiens, UniProt Q92794, residues 85-181)
Notes: 8-mer, flanks averaged, mean of 2 arrays, mostly near background
Construct (chain): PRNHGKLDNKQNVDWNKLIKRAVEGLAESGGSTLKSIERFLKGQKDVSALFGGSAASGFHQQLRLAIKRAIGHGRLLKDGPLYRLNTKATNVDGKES
Sequence	E-score
CCATTCGC	-0.0699
GGTTGCAA	0.0374
CCACGGGC	0.11
GCCCTGGA	-0.011
CCCATGCA	-0.0406
AGAATAAC	-0.193
ACCAGAGT	-0.0966
GCCGTTGA	0.0809
TAAATTGA	0.112
GTGAATAA	-0.0491
AAATGCCG	0.107
CTTAAATC	-0.0169
GACCTTGA	-0.0129
CGAATTCC	0.0998
CTGCATCA	0.101
CATTTAAC	0.022
ACTGTCCA	-0.0438
CTAGGACA	0.0134
AAAATGCG	0.047
CCATTTCC	-0.0346
AAAAACTA	0.0524
ACGAAGCC	0.0303
TGAACTAA	-0.0833
GGTGAGCA	0.0651

Study 4 — target: CCNE1, cyclin fold, Cln2 fusion (human); method: yeast growth competition, sequencing; matrix: yeast; notes: weak parent motif; relative to: not given; direction: higher = stronger binding
Starting sequence: WEE1 docking peptide (human); HKTFRKLRLFDTP
Change	normalised enrichment score
T3F	0.445
R5F	0.488
L9K	-0.426
K6N	0.525
F10D	-0.178
T3W	0.86
F4L	0.915
F4Q	0.0535
T3V	2.08
P13W	0.0236
D11A	0.324
R5K L9F	-0.134
T12V	0.993
R8K	1.13
K2F	0.699
F4I	0.583
D11E	0.761
D11R	0.322
L7Y	0.581
F10Y	-0.0954

Study 5 — method: protein-binding microarray; form: double-stranded DNA, one strand shown; matrix: in vitro; concentration: 250 nM; notes: 60-bp whole probe; added: salmon DNA 0.4 mg/ml; relative to: random background probes; direction: higher = stronger binding; constant ends, left off below: GCCTAGCAC … GTCTTGATTCGCTTGACGCTGCTG
Target: Interferon regulatory factor 7, full length, phosphomimetic (IRF7, Homo sapiens, UniProt Q92985, residues 1-503, S101K/S471D/S472D/S475D/S476D/S477D/S483D/S484D/S487D)
Sequence of UniProt Q92985 (whole entry, unmodified, looked up): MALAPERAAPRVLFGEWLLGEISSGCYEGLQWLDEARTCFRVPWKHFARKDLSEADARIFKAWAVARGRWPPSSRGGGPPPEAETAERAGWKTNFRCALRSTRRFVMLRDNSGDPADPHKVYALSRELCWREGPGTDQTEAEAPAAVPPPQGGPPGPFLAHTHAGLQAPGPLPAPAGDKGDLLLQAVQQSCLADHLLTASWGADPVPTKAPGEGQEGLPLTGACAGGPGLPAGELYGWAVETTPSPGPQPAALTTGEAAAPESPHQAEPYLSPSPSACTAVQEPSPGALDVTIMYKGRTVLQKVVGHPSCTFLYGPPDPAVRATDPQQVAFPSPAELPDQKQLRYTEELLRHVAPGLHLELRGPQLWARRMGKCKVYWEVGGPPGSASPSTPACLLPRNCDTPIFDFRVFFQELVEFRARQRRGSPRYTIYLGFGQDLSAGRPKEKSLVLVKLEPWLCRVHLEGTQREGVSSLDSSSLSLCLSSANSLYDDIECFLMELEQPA
Sequence	log fluorescence [z-score]
TTAGGTCTCCTTGTCCTTTAGTGCTAG	-0.43
TTAGGTTTCGGGTATCAGTTAGTGCTA	7.32
TAGTTTCTAAAACTCTTTATGTGCTAG	2.74
TTAGGTCTCTTTCTCCTTTAGTGCTAG	1.61
TTAGGTCTCCTTATCCGTTAGTGCTAG	0.867
TCATTAATGCTTCTGGAACTGTGCTAG	0.339
TTGCCTTTTGCTTTACTGATGTGCTAG	0.889
CCATCTCTCAAAAGTCACCCTGTGCTA	0.372
ATATACCTGAATATCTTCAGGTGCTAG	0.49
TTGTTTTTTGGTTTCTGGTTGTGCTAG	6.26
GACGGACTGTACACTGGGGACGTGCTA	-0.597
GACGATTTCGGGTATCAAGACGTGCTA	0.686
TCAGTTATCCATCTCAAACTGTGCTAG	0.463
TCAAGTTCATGTTTTGGACTGTGCTAG	0.448
GACGGTTTCGACCCTGGGGACGTGCTA	3.55
TTCGGACTGGACACTGGGTTAGTGCTA	-0.704
TATTTTTTTCTAATTGAAATGTGCTAG	2.21
TTAGGTCTCCTTTTCGTTTAGTGCTAG	2.44

Study 6 — method: DHFR PCA, deep sequencing; matrix: yeast; added: (+)-ABA 0.032 µM; relative to: wild-type fitted maximum; direction: higher = stronger binding
Target: ABI1, truncated, D143A, DHFR fusion (Arabidopsis thaliana)
Notes: methotrexate growth selection, single substitutions
Starting sequence: PYL1, truncated, DHFR fusion (Arabidopsis thaliana); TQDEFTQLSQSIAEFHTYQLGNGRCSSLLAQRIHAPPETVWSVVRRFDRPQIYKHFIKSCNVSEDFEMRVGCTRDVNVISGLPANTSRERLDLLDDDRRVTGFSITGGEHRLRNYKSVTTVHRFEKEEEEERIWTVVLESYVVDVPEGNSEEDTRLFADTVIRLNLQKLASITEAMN
Change	relative binding score
S63M	8.25%
L112E	1.93%
T17R	2.19%
D95F	-5.21%
I57E	-15.7%
I79A	15.6%
F103P	-2.5%
D95H	2.74%
D96L	-1.51%
A158S	-3.41%
V44G	-0.952%
D75V	35.2%
L8N	-14.1%
R49Y	1.6%

For quick reference, copied from above (study 3):
Sequence	E-score
GGTTGCAA	0.0374
AAAATGCG	0.047
ACTGTCCA	-0.0438
TGAACTAA	-0.0833
AAAAACTA	0.0524
TAAATTGA	0.112
CTTAAATC	-0.0169
CGAATTCC	0.0998
GCCGTTGA	0.0809
CTGCATCA	0.101
CCACGGGC	0.11
